Assay results gathered from unrelated publications.
Each numbered part is a random draw from the data of one study; scales do not carry over between parts.
UniProt P10721, sequence (whole entry, unmodified, looked up): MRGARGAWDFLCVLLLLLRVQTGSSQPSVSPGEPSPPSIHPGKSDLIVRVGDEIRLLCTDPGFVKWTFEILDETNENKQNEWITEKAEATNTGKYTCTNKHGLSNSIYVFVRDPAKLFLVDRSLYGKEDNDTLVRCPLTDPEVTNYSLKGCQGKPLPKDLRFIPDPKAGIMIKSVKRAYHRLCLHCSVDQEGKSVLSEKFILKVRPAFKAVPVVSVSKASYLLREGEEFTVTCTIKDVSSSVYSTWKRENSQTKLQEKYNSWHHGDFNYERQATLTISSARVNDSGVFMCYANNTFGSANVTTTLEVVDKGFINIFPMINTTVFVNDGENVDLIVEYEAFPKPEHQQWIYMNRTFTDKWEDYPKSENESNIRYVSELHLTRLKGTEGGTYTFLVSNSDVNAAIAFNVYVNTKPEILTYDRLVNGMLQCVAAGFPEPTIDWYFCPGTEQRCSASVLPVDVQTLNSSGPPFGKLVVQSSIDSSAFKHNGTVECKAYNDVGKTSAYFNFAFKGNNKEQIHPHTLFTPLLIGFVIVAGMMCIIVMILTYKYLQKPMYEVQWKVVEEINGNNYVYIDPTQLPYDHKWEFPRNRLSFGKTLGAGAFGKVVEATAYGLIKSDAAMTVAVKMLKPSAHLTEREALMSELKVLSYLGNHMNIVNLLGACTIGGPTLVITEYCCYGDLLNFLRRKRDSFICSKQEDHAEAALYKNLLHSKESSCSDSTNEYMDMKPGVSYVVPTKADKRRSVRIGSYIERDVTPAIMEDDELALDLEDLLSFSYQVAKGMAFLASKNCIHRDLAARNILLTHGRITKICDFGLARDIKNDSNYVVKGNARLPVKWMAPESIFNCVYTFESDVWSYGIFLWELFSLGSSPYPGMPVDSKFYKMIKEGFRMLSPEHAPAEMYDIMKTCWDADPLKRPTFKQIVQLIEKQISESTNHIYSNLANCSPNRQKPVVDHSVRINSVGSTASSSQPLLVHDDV
UniProt O94804, sequence (whole entry, looked up): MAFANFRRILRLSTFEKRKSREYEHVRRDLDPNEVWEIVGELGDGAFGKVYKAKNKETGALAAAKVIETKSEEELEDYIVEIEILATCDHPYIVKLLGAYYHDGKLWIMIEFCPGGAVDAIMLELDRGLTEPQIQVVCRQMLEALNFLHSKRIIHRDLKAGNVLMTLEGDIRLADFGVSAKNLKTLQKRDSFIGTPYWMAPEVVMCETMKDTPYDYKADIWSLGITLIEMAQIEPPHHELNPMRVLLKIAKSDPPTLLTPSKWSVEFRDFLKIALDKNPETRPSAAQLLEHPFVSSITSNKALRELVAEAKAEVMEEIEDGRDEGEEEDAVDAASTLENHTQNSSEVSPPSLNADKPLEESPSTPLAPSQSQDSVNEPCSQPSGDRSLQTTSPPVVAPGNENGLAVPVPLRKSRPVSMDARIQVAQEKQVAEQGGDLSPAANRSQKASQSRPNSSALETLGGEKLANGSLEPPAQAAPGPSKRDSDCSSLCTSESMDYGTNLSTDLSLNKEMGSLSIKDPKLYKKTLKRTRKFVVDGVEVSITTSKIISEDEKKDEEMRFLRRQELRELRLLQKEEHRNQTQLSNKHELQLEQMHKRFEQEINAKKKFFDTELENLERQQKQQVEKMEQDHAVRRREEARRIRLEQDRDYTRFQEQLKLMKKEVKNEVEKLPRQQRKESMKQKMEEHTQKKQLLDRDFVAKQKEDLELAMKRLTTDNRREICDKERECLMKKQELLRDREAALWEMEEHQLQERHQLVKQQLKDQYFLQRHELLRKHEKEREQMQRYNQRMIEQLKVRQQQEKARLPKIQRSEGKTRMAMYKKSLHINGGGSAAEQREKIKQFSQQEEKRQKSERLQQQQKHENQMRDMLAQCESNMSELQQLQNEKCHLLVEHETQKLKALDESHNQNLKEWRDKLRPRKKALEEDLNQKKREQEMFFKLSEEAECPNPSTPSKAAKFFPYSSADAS
UniProt P05771, sequence (whole entry, looked up): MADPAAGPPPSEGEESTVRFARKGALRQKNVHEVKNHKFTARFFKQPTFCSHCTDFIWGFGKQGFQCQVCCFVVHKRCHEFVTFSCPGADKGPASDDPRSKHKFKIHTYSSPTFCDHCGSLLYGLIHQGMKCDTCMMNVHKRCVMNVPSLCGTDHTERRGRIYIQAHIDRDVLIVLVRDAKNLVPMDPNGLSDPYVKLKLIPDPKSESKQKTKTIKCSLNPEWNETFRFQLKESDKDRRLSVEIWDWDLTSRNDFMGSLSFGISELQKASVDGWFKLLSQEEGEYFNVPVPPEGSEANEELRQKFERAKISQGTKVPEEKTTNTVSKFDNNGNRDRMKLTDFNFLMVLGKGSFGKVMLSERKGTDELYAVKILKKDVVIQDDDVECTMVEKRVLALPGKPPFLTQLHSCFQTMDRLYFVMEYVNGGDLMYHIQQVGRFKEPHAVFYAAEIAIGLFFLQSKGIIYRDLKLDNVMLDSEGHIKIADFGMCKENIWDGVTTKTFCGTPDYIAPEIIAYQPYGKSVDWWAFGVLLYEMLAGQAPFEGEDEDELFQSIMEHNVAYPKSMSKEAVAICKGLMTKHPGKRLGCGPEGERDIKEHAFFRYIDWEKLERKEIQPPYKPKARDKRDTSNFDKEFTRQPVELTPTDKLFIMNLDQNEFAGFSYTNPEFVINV
UniProt Q9UBE8, sequence (whole entry, looked up): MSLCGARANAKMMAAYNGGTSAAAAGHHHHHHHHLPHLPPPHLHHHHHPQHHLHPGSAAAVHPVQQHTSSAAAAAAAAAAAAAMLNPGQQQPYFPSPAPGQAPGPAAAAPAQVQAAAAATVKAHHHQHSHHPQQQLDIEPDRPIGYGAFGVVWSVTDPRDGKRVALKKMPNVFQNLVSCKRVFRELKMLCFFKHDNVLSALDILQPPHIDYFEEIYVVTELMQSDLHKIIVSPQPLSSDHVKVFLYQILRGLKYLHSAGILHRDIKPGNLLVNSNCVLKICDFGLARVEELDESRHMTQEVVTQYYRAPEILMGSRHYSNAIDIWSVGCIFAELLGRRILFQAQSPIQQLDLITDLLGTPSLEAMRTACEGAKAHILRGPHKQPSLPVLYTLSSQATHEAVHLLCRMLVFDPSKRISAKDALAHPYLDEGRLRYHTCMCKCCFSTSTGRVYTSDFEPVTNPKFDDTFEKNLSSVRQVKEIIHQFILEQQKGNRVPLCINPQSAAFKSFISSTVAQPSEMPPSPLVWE
UniProt P35626, sequence (whole entry, looked up): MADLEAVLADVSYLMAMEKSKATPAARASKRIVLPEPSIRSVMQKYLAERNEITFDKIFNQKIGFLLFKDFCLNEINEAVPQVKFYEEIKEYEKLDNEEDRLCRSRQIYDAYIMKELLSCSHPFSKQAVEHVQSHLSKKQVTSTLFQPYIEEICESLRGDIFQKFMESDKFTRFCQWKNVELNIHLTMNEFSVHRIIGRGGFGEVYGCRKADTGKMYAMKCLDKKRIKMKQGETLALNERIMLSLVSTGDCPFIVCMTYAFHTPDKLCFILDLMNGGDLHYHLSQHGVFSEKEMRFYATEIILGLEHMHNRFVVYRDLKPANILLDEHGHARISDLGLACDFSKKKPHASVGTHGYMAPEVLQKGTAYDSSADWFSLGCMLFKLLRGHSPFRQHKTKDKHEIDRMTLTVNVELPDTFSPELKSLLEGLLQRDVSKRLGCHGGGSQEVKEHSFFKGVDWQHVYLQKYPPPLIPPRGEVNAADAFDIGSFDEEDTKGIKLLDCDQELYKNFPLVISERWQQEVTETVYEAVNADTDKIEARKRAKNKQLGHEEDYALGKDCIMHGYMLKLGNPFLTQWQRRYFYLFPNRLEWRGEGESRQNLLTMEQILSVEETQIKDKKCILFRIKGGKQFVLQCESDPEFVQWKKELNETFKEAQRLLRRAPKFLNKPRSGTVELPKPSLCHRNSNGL
UniProt Q13557, sequence (whole entry, looked up): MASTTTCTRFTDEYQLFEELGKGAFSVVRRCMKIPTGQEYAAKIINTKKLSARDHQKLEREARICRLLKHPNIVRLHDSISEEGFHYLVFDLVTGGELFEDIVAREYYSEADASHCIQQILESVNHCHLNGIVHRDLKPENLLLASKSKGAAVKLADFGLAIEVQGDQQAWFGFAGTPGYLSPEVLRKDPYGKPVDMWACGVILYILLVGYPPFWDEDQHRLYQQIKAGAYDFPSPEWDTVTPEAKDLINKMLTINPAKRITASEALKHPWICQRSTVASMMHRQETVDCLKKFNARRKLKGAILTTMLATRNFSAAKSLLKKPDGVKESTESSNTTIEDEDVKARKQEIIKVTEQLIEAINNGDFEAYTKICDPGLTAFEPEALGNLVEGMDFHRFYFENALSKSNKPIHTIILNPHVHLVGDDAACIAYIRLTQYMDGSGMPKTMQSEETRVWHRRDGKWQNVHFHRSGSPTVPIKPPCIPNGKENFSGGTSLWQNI
UniProt O95747, sequence (whole entry, looked up): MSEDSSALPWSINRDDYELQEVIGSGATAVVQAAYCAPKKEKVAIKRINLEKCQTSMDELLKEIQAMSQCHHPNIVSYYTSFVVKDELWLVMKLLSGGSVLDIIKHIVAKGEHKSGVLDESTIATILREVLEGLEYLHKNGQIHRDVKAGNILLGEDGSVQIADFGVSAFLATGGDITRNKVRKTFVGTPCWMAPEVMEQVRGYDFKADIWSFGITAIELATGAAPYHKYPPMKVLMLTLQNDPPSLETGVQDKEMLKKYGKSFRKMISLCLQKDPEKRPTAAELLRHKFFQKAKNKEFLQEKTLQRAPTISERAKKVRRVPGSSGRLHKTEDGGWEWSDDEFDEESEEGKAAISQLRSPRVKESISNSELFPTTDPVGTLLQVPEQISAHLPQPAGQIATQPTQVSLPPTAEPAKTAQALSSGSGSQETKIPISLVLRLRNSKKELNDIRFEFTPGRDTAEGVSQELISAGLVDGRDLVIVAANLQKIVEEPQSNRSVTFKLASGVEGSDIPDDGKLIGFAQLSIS

Sample 1 — cell line: HaCaT; concentration: 100 µM; time: 36 h
Structure (SMILES)	viability [%]
OC[C@@H](O)[C@@H](O)[C@H](O)[C@H](O)CO	84.7
NC(=O)OCC(COC(N)=O)c1ccccc1	93.8
CCc1nc(N)nc(N)c1-c1ccc(Cl)cc1	53.4
CC(=O)OCC(CCn1cnc2cnc(N)nc21)COC(C)=O	94.3
CCOC(N)=O	89.3
CCC[C@H](N[C@@H](C)C(=O)N1[C@H](C(=O)O)C[C@@H]2CCCC[C@@H]21)C(=O)O	100
CC[C@H](C)C[C@H](C)CCCCCCCCC(=O)N[C@H]1C[C@@H](O)[C@@H](NCCN)NC(=O)[C@@H]2[C@@H](O)CCN2C(=O)[C@H]([C@H](O)CCN)NC(=O)[C@H]([C@H](O)[C@@H](O)c2ccc(O)cc2)NC(=O)[C@@H]2C[C@@H](O)CN2C(=O)[C@H]([C@@H](C)O)NC1=O	36.6
Cc1ccc(Nc2nccc(N(C)c3ccc4c(C)n(C)nc4c3)n2)cc1S(N)(=O)=O	93.7
COc1ccccc1OCC(O)CO (centres unmarked)	86
CCOC(=O)[N-]c1cn(N2CCOCC2)n[o+]1	90.6

Sample 2 — observed: cell-free assay; method: competition with immobilised ligand; concentration: 0.1 µM
Compound: CC(C)CC(=O)N1CCc2nc(-c3ccc(Br)cc3)nc(N(C)Cc3ccccc3)c2C1
target	remaining binding
PIK3C3 (Homo sapiens, UniProt Q8NEB9)	100%
KIT (Homo sapiens, UniProt P10721)	100%
SRPK1 (Homo sapiens, UniProt Q96SB4)	99%
KIT (Homo sapiens, UniProt P10721, T670I/V559D)	95%
BRSK2 (Homo sapiens, UniProt Q8IWQ3)	94%
NLK (Homo sapiens, UniProt Q9UBE8)	100%
EPHA5 (Homo sapiens, UniProt P54756)	89%
ZAP70 (Homo sapiens, UniProt P43403)	91%
PIK3CA (Homo sapiens, UniProt P42336, H1047L)	100%
ALK (Homo sapiens, UniProt Q9UM73)	91%
STK3 (Homo sapiens, UniProt Q13188)	100%
FLT3 (Homo sapiens, UniProt P36888, ITD)	99%
Ribosomal protein S6 kinase alpha-6, C-terminal kinase domain (RPS6KA6, Homo sapiens, UniProt Q9UK32)	100%
LATS2 (Homo sapiens, UniProt Q9NRM7)	94%
MAP3K7 (Homo sapiens, UniProt O43318)	78%

Sample 3 — SMILES: O=c1cc(N2CCOCC2)oc2c1ccc1ccccc12; observed: enzyme activity; action: inhibitor; concentration: 0.5 µM; baseline: control
target	remaining activity
IKBKB (Homo sapiens, UniProt O14920)	105%
OXSR1 (Homo sapiens, UniProt O95747)	108%
TGFBR1 (Homo sapiens, UniProt P36897)	98.5%
CHEK2 (Homo sapiens, UniProt O96017)	104%
GRK3 (Homo sapiens, UniProt P35626)	102%
IKBKE (Homo sapiens, UniProt Q14164)	101%
Protein kinase C beta type, isoform beta-I (PRKCB, Homo sapiens, UniProt P05771)	93.4%
DAPK1 (Homo sapiens, UniProt P53355)	90.9%
STK10 (Homo sapiens, UniProt O94804)	96.9%
STK39 (Homo sapiens, UniProt Q9UEW8)	95.7%
PRKACA (Homo sapiens, UniProt P17612)	102%
NEK2 (Homo sapiens, UniProt P51955)	94.8%
CAMKK2 (Homo sapiens, UniProt Q96RR4)	104%
cGMP-dependent protein kinase 1, isoform beta (PRKG1, Homo sapiens, UniProt Q13976)	84.5%
MAP3K3 (Homo sapiens, UniProt Q99759)	102%
TGFBR2 (Homo sapiens, UniProt P37173)	122%
CAMK2D (Homo sapiens, UniProt Q13557)	99.9%
Tyrosine-protein kinase Lyn, isoform B (LYN, Homo sapiens, UniProt P07948)	104%
Cyclin-dependent kinase 5, with p25 (CDK5, Homo sapiens, UniProt Q00535)	98.9%
PRKCA (Homo sapiens, UniProt P17252)	89.2%
MAPK9 (Homo sapiens, UniProt P45984)	101%
DAPK2 (Homo sapiens, UniProt Q9UIK4)	115%

Sample 4
Structure (SMILES): CC(C)n1cnc(-c2ccc(F)cc2)c1-c1ncc(C(=O)Nc2ccc(N3CCN(C)CC3)cc2)[nH]1
method	item	species	route	dose	setting	patients with TEAE
phase 2a trial	–	idiopathic pulmonary fibrosis patients	oral	dose not given	CK-MB increased, grade 2, all arms	0%
phase 2a trial	–	idiopathic pulmonary fibrosis patients	oral	60 mg once daily	CK-MB increased, grade 2	0%
–	hypothyroidism grade 5	idiopathic pulmonary fibrosis patients	–	60 mg once daily	–	0%
phase 2a trial	–	idiopathic pulmonary fibrosis patients	oral	60 mg once daily	CK-MB increased, grade 3	0%
phase 2a trial	–	patients with idiopathic pulmonary fibrosis	–	dose not given	free thyroxine decreased, grade 4, all arms	0%
phase 2a trial	–	patients with idiopathic pulmonary fibrosis	–	dose not given	endocrine disorders SOC, grade 3, all arms	0%
phase 2a trial	–	patients with idiopathic pulmonary fibrosis	–	dose not given	endocrine disorders SOC, grade 1, all arms	0%
phase 2a trial	–	patients with idiopathic pulmonary fibrosis	–	60 mg once daily	endocrine disorders SOC, grade 4	0%
–	free thyroxine decreased	idiopathic pulmonary fibrosis patients	–	30 mg once daily	–	0%
phase 2a trial	–	patients with idiopathic pulmonary fibrosis	–	60 mg once daily	free thyroxine decreased, grade 2	0%
phase 2a trial	–	idiopathic pulmonary fibrosis patients	oral	60 mg once daily	ESR increased, grade 4	0%
phase 2a trial	–	patients with idiopathic pulmonary fibrosis	–	60 mg once daily	nervous system disorders SOC, grade 3	0%

For quick reference, copied from above (sample 3):
target	remaining activity
NEK2 (Homo sapiens, UniProt P51955)	94.8%
CAMKK2 (Homo sapiens, UniProt Q96RR4)	104%
cGMP-dependent protein kinase 1, isoform beta (PRKG1, Homo sapiens, UniProt Q13976)	84.5%
